Measured values gathered from unrelated publications.
Protocols differ between the studies behind these lines. ± gives the spread as reported.

SMILES | test system | conditions | scale | endpoint | value
CONC(=O)[C@H]1[C@@H](O)[C@@]2(O)c3c(cc(OC)nc3OC)O[C@@]2(c2ccc(C#N)cc2)[C@@H]1c1ccccc1 | mouse, plasma | oral, 5 mg/kg |  | plasma half-life | ~10 h
CC(C)(C)NCC(SS(=O)(=O)O)c1ccccc1 (stereo not drawn) | Swiss Webster mouse, female, plasma | oral, 100 mg/kg, 0.5 to 4.0 h |  | plasma peak decrease | > 50%
Cn1cnnc1Sc1c2c(c(C#N)c3nc4ccccc4n13)CCCC2 | C57BL/6 mouse, plasma | intravenous, 0.3 µg/g, 15 min |  | plasma concentration | 0.0063 µg/mL
C=CC(=O)Nc1cccc(-c2cnc3[nH]cc(C(=O)NC(C)(C)C)c3n2)c1 | mouse NOD/SCID female, plasma | 50 mg/kg | reference: ip over oral | plasma exposure ratio | 10 fold
O=C(Nc1nccs1)C(c1cc(F)ccc1O)N1Cc2ccccc2C1=O (stereo not drawn) | mouse FVB/NRj, female, plasma | oral, 20 mg/kg |  | plasma half-life | 1.36 ± 0.61 h
Cc1nc(NC(=O)N2CCC[C@H]2C(N)=O)sc1-c1csc(C(C)(C)C)n1 | mouse SK-OV-3 xenograft, plasma | intraperitoneal, 100 mg/kg single, 6 h |  | plasma concentration | 9.1 ± 1.1 µM
Cn1ncc2c1N(CCCCNC/C=C/C#N)c1cc(Cl)ccc1CC2.O=C(O)/C=C\C(=O)O | mouse, plasma | intravenous, 5 mg/kg |  | plasma clearance | > 5.4 L/h/kg
CCN(C(=O)c1cc(F)ccc1Oc1nncnc1N1CCC2(C1)CN([C@H](CCCN(C)CCOC)C(C)C)C2)C(C)C | mouse | oral, oxalate salt |  | plasma half-life | ~9 h
CCC1CC2C(C)=CC3C(=O)CCCC3C=CC(C)=CC2C(=O)O1 (stereo not drawn) | ICR mouse (male), plasma | oral, 30 mg/kg, 5 min |  | plasma concentration | 0.019 ± 0.0107 µg/mL

Excerpt of the above:
SMILES | test system | conditions | scale | endpoint | value
O=C(Nc1nccs1)C(c1cc(F)ccc1O)N1Cc2ccccc2C1=O (stereo not drawn) | mouse FVB/NRj, female, plasma | oral, 20 mg/kg |  | plasma half-life | 1.36 ± 0.61 h
